Experimental data from different studies.
A part holds a random share of what one study measured.
Chain of UniProt Q86Y07 (whole entry, looked up): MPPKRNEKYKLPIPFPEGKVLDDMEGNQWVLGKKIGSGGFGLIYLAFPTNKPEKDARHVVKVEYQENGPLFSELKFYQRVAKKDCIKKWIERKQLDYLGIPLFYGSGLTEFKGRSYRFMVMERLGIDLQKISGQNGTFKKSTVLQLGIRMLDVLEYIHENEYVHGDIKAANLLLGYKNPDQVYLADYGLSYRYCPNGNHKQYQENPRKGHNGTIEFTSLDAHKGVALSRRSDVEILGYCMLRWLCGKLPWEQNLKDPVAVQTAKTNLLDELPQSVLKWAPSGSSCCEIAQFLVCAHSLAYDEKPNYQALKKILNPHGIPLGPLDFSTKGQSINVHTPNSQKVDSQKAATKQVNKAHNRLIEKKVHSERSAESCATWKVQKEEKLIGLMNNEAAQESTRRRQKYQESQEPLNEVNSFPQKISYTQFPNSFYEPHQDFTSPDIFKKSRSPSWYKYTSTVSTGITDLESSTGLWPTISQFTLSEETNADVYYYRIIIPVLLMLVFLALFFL
Chain of UniProt Q15349 (whole entry, looked up): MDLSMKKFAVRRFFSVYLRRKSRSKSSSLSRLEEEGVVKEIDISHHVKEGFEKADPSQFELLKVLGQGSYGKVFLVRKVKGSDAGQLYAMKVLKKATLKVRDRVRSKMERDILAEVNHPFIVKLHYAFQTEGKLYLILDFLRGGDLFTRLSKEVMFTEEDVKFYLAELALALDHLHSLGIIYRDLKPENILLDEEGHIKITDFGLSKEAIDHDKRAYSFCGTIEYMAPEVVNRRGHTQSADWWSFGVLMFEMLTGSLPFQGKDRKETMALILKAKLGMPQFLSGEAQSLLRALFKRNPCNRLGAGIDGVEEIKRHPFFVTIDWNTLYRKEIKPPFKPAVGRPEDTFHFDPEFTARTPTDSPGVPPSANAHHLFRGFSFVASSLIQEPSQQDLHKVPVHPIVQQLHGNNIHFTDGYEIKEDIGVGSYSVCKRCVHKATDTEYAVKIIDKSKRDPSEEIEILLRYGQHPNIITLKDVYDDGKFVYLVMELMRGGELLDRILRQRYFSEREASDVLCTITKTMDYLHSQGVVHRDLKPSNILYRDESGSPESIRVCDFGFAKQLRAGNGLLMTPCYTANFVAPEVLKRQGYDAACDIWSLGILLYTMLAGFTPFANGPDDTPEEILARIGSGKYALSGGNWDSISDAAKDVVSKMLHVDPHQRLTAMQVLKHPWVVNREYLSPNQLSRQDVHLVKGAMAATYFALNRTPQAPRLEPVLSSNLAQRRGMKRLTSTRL
Chain of UniProt P42680 (whole entry, looked up): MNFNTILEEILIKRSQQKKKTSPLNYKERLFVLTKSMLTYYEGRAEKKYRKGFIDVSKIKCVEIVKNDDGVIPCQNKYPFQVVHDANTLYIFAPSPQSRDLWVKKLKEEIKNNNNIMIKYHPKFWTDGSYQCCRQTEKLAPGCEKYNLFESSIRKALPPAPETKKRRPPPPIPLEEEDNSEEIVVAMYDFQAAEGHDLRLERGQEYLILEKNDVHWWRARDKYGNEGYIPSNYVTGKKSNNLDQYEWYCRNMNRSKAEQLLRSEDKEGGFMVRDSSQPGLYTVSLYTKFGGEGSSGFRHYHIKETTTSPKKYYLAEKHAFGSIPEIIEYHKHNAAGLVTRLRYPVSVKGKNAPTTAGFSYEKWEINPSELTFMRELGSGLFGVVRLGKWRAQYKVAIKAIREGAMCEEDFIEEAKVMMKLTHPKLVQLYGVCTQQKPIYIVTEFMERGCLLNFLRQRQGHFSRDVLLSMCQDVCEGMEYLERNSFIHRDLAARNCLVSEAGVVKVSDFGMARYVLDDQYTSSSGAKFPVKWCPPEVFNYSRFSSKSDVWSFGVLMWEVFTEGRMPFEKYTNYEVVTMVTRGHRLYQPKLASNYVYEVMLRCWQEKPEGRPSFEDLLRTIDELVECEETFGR
Chain of UniProt P42336 (whole entry, unmodified, looked up): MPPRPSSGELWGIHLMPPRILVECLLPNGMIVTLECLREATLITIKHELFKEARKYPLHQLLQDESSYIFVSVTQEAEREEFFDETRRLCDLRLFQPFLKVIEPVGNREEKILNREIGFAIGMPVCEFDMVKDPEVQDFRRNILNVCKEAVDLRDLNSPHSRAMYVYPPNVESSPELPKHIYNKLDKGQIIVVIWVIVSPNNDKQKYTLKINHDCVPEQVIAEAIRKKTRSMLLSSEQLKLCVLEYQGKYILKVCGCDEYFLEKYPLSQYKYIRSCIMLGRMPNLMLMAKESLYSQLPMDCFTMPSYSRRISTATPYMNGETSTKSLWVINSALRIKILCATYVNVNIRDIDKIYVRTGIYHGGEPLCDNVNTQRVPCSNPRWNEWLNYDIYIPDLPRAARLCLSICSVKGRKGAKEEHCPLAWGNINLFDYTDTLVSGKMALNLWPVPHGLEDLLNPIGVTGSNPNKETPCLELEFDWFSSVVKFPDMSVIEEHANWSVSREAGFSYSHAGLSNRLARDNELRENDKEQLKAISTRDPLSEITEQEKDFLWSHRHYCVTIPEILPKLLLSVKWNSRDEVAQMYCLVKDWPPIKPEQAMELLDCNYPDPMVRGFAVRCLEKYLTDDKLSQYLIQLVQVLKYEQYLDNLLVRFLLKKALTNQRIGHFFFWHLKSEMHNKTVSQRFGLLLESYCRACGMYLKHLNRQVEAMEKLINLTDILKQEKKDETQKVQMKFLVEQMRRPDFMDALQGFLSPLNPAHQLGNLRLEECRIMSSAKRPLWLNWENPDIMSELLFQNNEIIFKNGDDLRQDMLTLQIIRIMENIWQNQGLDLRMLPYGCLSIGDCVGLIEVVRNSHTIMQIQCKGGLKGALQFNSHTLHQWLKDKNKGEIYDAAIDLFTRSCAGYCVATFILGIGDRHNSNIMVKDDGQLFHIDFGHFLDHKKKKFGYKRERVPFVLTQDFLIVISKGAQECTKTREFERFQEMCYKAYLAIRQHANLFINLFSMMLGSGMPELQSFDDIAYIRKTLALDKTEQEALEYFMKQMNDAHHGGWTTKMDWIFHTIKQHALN
Chain of UniProt P49840 (whole entry, looked up): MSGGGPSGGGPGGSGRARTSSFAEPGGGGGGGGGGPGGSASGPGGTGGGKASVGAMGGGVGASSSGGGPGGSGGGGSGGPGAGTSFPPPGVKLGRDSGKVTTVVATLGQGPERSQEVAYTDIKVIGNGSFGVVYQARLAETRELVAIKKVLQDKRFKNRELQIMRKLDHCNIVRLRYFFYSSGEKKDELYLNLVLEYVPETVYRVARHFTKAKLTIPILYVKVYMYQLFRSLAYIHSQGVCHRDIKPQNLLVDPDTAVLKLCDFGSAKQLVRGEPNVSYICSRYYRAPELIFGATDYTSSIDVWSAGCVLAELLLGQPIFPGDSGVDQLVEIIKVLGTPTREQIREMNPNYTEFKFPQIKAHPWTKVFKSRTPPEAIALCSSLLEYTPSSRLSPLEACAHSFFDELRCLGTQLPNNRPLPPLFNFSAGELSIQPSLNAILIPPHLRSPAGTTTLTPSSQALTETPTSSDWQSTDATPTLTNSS

Block 1 — species: mouse; sample: microsomes or S9; concentration: 2 µM; time: 0.5 h
| SMILES | remaining compound |
| --- | --- |
| CC(C)Cn1c(NCCc2ccccc2)nc2c1c(O)nc(=O)n2C | 8.53% |
| COc1cc2cc(O)c(C)cc2cc1Cc1ccccc1 | 13.4% |
| CC(C)C1CC(n2cc(C(=O)O)nn2)c2cc(Cl)ccc2O1 (stereo not shown) | 71.2% |
| COc1ccc(C(=O)N2CCC(n3c(C)cnc3C3CCC3)C2)cc1 (stereo not shown) | 41.3% |
| CC(C)CC(O)C1CCN(C(=O)CCCn2cncn2)CC1 (stereo not shown) | 26% |

Block 2 — cell line: mouse MPNST tumor cells; technique: high-content immunofluorescence imaging; item: nuclear SOX9; concentration: 10 µM; time: 12 h; notes: mean of 2 replicates; reference: DMSO control; reading: higher = more nuclear SOX9
| Structure (SMILES) | nuclear SOX9 intensity |
| --- | --- |
| Cc1cc(C)c2nc(-c3ccccn3)cc(C(=O)Nc3ccc(S(=O)(=O)Nc4onc(C)c4C)cc3)c2c1 | 101 % of DMSO |
| N#C[C@H](Cc1ccc(O)cc1)c1ccc(O)cc1 | 94.2 % of DMSO |
| CN(Cc1cnc2nc(N)nc(N)c2n1)c1ccc(C(=O)N[C@@H](CCC(=O)O)C(=O)O)cc1 | 93.9 % of DMSO |
| O=C1Cc2cc(CCN3CCN(c4nsc5ccccc45)CC3)c(Cl)cc2N1 | 95.7 % of DMSO |
| CN1CCN(c2ccc(/C=C(\C#N)c3ccccc3Br)cc2)CC1 | 128 % of DMSO |

Block 3 — mode: antagonist
Target: Beta-1 adrenergic receptor (ADRB1, Homo sapiens, UniProt P08588)
Chain of UniProt P08588 (whole entry, looked up): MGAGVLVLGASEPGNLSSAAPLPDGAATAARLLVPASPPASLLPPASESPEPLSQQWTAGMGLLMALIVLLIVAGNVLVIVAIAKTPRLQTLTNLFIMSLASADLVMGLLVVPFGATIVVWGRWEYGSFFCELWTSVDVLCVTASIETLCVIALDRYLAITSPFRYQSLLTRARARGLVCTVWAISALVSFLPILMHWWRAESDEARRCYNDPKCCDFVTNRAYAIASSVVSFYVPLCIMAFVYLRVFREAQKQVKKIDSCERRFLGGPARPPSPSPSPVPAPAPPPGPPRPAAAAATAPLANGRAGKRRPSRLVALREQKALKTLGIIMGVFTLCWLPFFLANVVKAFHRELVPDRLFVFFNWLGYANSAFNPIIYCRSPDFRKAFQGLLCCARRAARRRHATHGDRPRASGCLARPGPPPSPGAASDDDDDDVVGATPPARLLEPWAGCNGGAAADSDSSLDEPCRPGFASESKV
| Compound | IC50 [µM] |
| --- | --- |
| Cc1ccc2c(-c3ccc(NC4CC4)nn3)cccc2n1 | 22.4 |
| Nc1nc(N)c2nc(-c3ccccc3)c(N)nc2n1 | ≥ 100 |
| Clc1cccc(N2CCN(C3CCNCC3)CC2)c1 | ≥ 100 |
| COc1cc(/C=C/C(=O)c2c(O)ccc3c(C)cc(=O)oc23)ccc1O | ≥ 100 |
| CN(C)c1cccc(-c2nccc3c(=O)cc(N(C)C4CCOCC4)oc23)c1 | ≥ 100 |
| Cc1cc(C)n(C2CN(Cc3cccc(OCC(O)CN4CCOCC4)c3)C2)n1 (stereo not shown) | ≥ 100 |
| CC(C)(C)c1ccc(O)c(O)c1 | ≥ 100 |
| O=c1c2nc(-c3ccc4c(c3)OCO4)ccc2ncn1-c1ccc(F)cc1F | ≥ 100 |

Block 4 — read-out: cell-free assay; technique: competition with immobilised ligand; concentration: 1 µM
SMILES: CCCCN(CCCC)C(=O)CN1C[C@H](c2cc(OC)c3c(c2)OCO3)[C@@H](C(=O)O)[C@@H]1CC(C)(C)CCC
| target | remaining binding [%] |
| --- | --- |
| EGFR (Homo sapiens, UniProt P00533, L858R/T790M) | 60.6 |
| MKNK2 (Homo sapiens, UniProt Q9HBH9) | 83 |
| EPHB1 (Homo sapiens, UniProt P54762) | 100 |
| GSK3A (Homo sapiens, UniProt P49840) | 92.3 |
| TBK1 (Homo sapiens, UniProt Q9UHD2) | 100 |
| VRK2 (Homo sapiens, UniProt Q86Y07) | 72.8 |
| Ribosomal protein S6 kinase alpha-2, N-terminal kinase domain (RPS6KA2, Homo sapiens, UniProt Q15349) | 100 |
| SIK2 (Homo sapiens, UniProt Q9H0K1) | 100 |
| NEK5 (Homo sapiens, UniProt Q6P3R8) | 100 |
| WNK1 (Homo sapiens, UniProt Q9H4A3) | 72.9 |
| NEK9 (Homo sapiens, UniProt Q8TD19) | 100 |
| RIOK1 (Homo sapiens, UniProt Q9BRS2) | 65.8 |
| PIK3CA (Homo sapiens, UniProt P42336, E545K) | 70 |
| FLT3 (Homo sapiens, UniProt P36888, ITD) | 100 |
| COQ8B (Homo sapiens, UniProt Q96D53) | 0 |
| TEC (Homo sapiens, UniProt P42680) | 100 |

Some of these lines once more (block 4):
| target | remaining binding [%] |
| --- | --- |
| TBK1 (Homo sapiens, UniProt Q9UHD2) | 100 |
| VRK2 (Homo sapiens, UniProt Q86Y07) | 72.8 |
| Ribosomal protein S6 kinase alpha-2, N-terminal kinase domain (RPS6KA2, Homo sapiens, UniProt Q15349) | 100 |
| SIK2 (Homo sapiens, UniProt Q9H0K1) | 100 |
| NEK5 (Homo sapiens, UniProt Q6P3R8) | 100 |
